Results from different studies.
Protocols differ between the studies behind these lines. ± gives the spread as reported.
Organism: Plasmodium falciparum

O=S(=O)(c1ccc(-c2ccc3nccc(Nc4ccnnc4)c3c2)cc1)N1CCOCC1 has an EC50 of > 20000 nM (parasite growth, SYBR Green; TM91C235).
With CCn1ccc2c(Cc3ccc(C(F)(F)F)nc3)n(C)nc2c1=O the EC50 was 631 nM (parasite growth; 3D7).
The EC50 of O=S(=O)(c1ccc(-c2ccc3nccc(Nc4ccc(OCc5cccc(F)c5)cc4)c3c2)cc1)N1CCOCC1 is reported as 1300 nM (parasite growth, SYBR Green; TM91C235).
The EC50 of COCC(=O)N1CCC[C@H](C(=O)NCc2nc(-c3ccccc3C)cs2)C1 is reported as > 5000 nM (SYBR Green growth; asexual blood-stage parasites, 3D7; 72 h).
The EC50 of CCOCCOc1ccnc2ccc(-c3ccc(S(=O)(=O)N4CCOCC4)cc3)cc12 is reported as 3900 nM (parasite growth, SYBR Green; D6).
The EC50 of CNS(=O)(=O)c1ccccc1Nc1nc(Nc2ccc(N3CCOCC3)cc2OC)ncc1Br is reported as 290 nM (parasite growth, LDH colorimetric; 3D7 Hyp1-Nluc; 72 h).
Cn1nc2c(=O)n(C3CC3)ncc2c1[C@@](O)(c1cnc(C(F)(F)F)c(Cl)c1)C(F)(F)F gave an EC50 of 631 nM (parasite growth; 3D7).
The EC50 of Cc1cnc(Nc2ccnc3ccc(-c4ccc(S(=O)(=O)N5CCOCC5)cc4)cc23)s1 is reported as 370 nM (parasite growth, SYBR Green; W2).
With CCOCCN1CCC[C@H](C(=O)NCc2nc(-c3ccccc3)cs2)C1 the EC50 was > 5000 nM (SYBR Green growth; asexual blood-stage parasites, 3D7; 72 h).
With Cc1c(-c2c[nH]c3cc(C(F)(F)F)ccc23)c[nH]c1C(=O)NC(C)c1ccn(C)n1 (centres unmarked) the EC50 was > 5000 nM (parasite growth; 3D7).
O=S(=O)(c1ccc(-c2ccc3nccc(Nc4ccncn4)c3c2)cc1)N1CCOCC1 has an EC50 of 8600 nM (parasite growth, SYBR Green; D6).
CCN1CCN(Cc2ccc(Nc3nc4ccc(Oc5ccnc(NC(C)=O)c5)c5c4n3CCC5)cc2C(F)(F)F)CC1 has an EC50 of > 5000 nM (parasite growth, SYBR Green I; Dd2; 72 h).
The EC50 of COCC(=O)N1CCC[C@H](C(=O)NCc2nc(-c3cnn(C)c3)cs2)C1 is reported as 870 ± 210 nM (parasite growth, SYBR Green; 3D7, asexual blood stage; 72 h).
With COc1ccc(NC(=O)N2CCCCN3[C@H](CO)[C@H](c4ccc(C#Cc5ccccc5)cc4)[C@@H]3C2)cc1 the EC50 was 11 nM (blood-stage growth inhibition; Dd2).
With CCOCC(=O)N1CCNC(C(=O)NCc2nc(-c3ccccc3)cs2)C1 (centres unmarked) the EC50 was 1800 ± 840 nM (SYBR Green growth; asexual blood-stage parasites, 3D7; 72 h).
The EC50 of O=S(=O)(c1ccc(-c2ccc3nccc(Nc4nnc(C5CC5)s4)c3c2)cc1)N1CCOCC1 is reported as 1400 nM (parasite growth, SYBR Green; W2).
CCn1cc(-c2nc(C)no2)c(=O)c2cc(F)c(N3CCC(Cc4ccccc4)CC3)cc21 has an EC50 of 2 nM (parasite growth, [3H]hypoxanthine incorporation; 7G8; 72 h).
For CCOCC(=O)N1CCC[C@H](C(=O)NCc2nc(-c3ccccc3)cs2)C1, the EC50 was 37 ± 3.2 nM (SYBR Green; 3D7; 72 h).
CCn1cc(C2CC2)c2c(Cc3cnc(C(F)(F)F)c(OC)c3)n(C)nc2c1=O has an EC50 of 15.8 nM (parasite growth; 3D7).
O=C(NCc1nc(-c2ccccc2)cs1)[C@H]1CCCN(C(=O)c2cccs2)C1 gave an EC50 of 890 ± 200 nM (SYBR Green growth; asexual blood-stage parasites, 3D7; 72 h).
For Cc1nnc(Nc2ccnc3ccc(-c4ccc(S(=O)(=O)N5CCOCC5)cc4)cc23)nc1C, the EC50 was 680 nM (parasite growth, SYBR Green; TM91C235).
The EC50 of CCn1cc(C)c2c([C@H](N)c3ccc(C(F)(F)F)nc3)n(C)nc2c1=O is reported as 63.1 nM (parasite growth; 3D7).
CCOCC(=O)N1C2CCC(C(=O)NCc3nc(-c4ccc(C#N)cc4)cs3)C1CC2 (centres unmarked) gave an EC50 of 33 ± 9.6 nM (SYBR Green growth; asexual blood-stage parasites, 3D7; 72 h).

For quick reference, copied from above:
CCn1cc(C2CC2)c2c(Cc3cnc(C(F)(F)F)c(OC)c3)n(C)nc2c1=O has an EC50 of 15.8 nM (parasite growth; 3D7).
For CCOCC(=O)N1CCC[C@H](C(=O)NCc2nc(-c3ccccc3)cs2)C1, the EC50 was 37 ± 3.2 nM (SYBR Green; 3D7; 72 h).
